Experimental data from different studies.
Parts stem from different laboratories: compare values within a part only. Positions count from the first letter of the parent shown.

Sample 1
Target: Sal-like protein 4, full length isoform B (SALL4, Homo sapiens, UniProt Q9UJQ4-2, residues 1-616)
Method: universal PBM
Molecule type: double-stranded DNA, one strand shown
Medium: in vitro
Tested at: not given
Setting: 8-mer, flanks averaged, mean of replicates
Direction: higher = stronger binding
Construct (chain): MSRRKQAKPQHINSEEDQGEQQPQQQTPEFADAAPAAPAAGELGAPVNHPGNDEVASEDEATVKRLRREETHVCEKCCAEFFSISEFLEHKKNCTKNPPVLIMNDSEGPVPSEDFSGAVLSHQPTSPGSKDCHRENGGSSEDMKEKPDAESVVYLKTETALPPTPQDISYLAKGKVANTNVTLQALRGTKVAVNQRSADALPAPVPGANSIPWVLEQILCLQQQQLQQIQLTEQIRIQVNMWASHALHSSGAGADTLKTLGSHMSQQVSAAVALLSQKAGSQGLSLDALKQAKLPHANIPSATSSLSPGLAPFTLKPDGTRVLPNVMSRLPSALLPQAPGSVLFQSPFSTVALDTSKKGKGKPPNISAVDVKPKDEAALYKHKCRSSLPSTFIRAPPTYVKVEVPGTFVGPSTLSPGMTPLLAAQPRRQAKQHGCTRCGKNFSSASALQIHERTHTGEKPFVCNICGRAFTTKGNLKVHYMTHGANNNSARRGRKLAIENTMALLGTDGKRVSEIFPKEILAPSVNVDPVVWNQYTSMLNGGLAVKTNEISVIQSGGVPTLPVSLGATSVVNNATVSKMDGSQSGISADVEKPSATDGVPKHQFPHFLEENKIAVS
Sequence	E-score
ACTCAAGT	0.0795
CACAGGTG	-0.118
GAGAAGAC	-0.115
AGTATATC	0.132
ACACGAGT	-0.0259
GAGTGATC	-0.122
AATGTCTC	0.00812
CGCTTAAG	-0.0926
CACGAGAA	-0.149
AAATAGCA	0.202
GGGCGGAA	-0.186
GTGTTTAA	0.162
GGTCGTTA	-0.0447
GTAACTAC	0.108
AAACGACG	0.0675
AGGGTTTC	-0.0206

Sample 2
Target: CCNA1, cyclin fold, Cln2 fusion (human)
Method: yeast growth competition, sequencing
Medium: yeast
Setting: weak parent motif
Reference: not given
Direction: higher = stronger binding
Starting sequence: RB1 docking peptide (human); PKPLKKLRFDIEG; partner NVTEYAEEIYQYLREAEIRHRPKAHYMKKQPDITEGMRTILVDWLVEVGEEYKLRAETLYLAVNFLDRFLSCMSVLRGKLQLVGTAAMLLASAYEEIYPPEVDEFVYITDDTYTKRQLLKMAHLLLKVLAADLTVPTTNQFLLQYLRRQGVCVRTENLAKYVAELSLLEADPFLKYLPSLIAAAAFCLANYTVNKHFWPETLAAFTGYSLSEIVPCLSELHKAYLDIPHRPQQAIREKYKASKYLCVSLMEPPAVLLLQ
Variant	normalised enrichment score
G13N	0.0927
K5A	-0.0163
D10W	0.221
F9R	0.203
L7I	0.436
D10F	0.369
I11C	0.347
K6I	0.528
I11Y	0.146
D10S	-0.326
L7A	0.289
R8H	0.448
L7T	0.282
K5V	-0.00546
P3R	0.363
P3D	0.25
L7N	0.171
P3C	0.652

Sample 3
Target: CDC34 UBC core domain (UniProt P49427)
Method: yeast two-hybrid
Medium: yeast
Setting: mostly zero background
Reference: not given
Direction: higher = stronger interaction
B1: TRIM11 RING domain (UniProt Q96F44); chain LSTNLQEEATCAICLDYFTDPVMTDCGHNFCRECIRRCWGQPEGPYACPECRELSPQRNLRP
B2: MID2 RING domain (UniProt Q9UJV3); chain KMETLESELTCPICLELFEDPLLLPCAHSLCFSCAHRILVSSCSSGESIEPITAFQCPTCRYVISLNHRGL
B3: HLTF RING domain (UniProt Q14527); chain LILSSGSDEECAICLDSLTVPVITHCAHVFCKPCICQVIQNEQPHAKCPLCRNDIHEDNLLE
B4: NFX1 RING domain (UniProt Q12986); chain IEQLTTEKYECMVCCELVRVTAPVWSCQSCYHVFHLNCIKKWARSPASQADGQSGWRCPACQNVSAHVPNTY
B5: ARIH2 RING domain (UniProt O95376); chain HVPTSHPPHHCAVCMQFVRKENLLSLACQHQFCRSCWEQHCSVLVKDGVGVGVSCMAQDCPLRTPEDFVF
B6: ZMYND11 RING domain (UniProt Q15326); chain DEIDWETENHDWYCFECHLPGEVLICDLCFRVYHSKCLSDEFRLRDSSSPWQCPVCRSIKKKNTNKQEM
B7: ZNRF4 RING domain (UniProt Q8WWF5); chain VRTFTWHNDLCAICLDEYEEGDQLKILPCSHTYHCKCIDPWFSQAPRRSCPVCKQSVAATEDSF
B8: MARCHF1 RING domain (UniProt Q8TCQ1); chain TAPRSQSRLSVCPSTQDICRICHCEGDEESPLITPCRCTGTLRFVHQSCLHQWIKSSDTRCCELCKYDFIMETKLKPLRKWE
Construct (chain): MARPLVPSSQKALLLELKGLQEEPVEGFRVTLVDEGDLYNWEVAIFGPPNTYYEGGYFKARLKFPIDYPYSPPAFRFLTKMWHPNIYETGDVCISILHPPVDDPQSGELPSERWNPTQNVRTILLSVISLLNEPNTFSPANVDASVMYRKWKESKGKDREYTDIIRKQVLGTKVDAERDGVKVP
Molecule	lacZ reporter activity
B1 (TRIM11 RING domain)	0
B2 (MID2 RING domain)	0
B3 (HLTF RING domain)	0
B4 (NFX1 RING domain)	0
B5 (ARIH2 RING domain)	0
B6 (ZMYND11 RING domain)	0
B7 (ZNRF4 RING domain)	0
B8 (MARCHF1 RING domain)	0

Sample 4
Target: RNA binding protein fox-1 homolog 2, RRM domain, GST-SBP tag (RBFOX2, Homo sapiens, UniProt O43251-10, residues 100-194)
Method: RNA Bind-n-Seq
Molecule type: RNA
Medium: in vitro
Tested at: 365 nM
Setting: natural RNA segment, single round, ends assumed
Reference: no-protein control
Direction: higher = stronger binding
Shared flanks, not repeated: GGGAGUUCUACAGUCCGACGAUC … UGGAAUUCUCGGGUGCCAA
Target sequence (chain): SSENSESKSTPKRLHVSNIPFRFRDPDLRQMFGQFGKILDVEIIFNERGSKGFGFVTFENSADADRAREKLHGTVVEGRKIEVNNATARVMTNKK
Sequence	RBNS enrichment (R)
AUCGGUGUUUUGAAUUGGUGCCUGCCUAUAGAGAUAUAUUCACAGUUCAAAAGUCAGGUGCUGAGAGAUGGUUUAAAGACAAAUUCAUGAAGGUAUAUUUUGUGUUAUAG	1.93
ACAGGUUUUCAGAGAAUUAUCUCAAGUAAAACAAAUGAAAUUUAAUUACAAACAAUAAGAACAAGUUUUGGCAGCCAUGAUAAUAGGUCAUAUGUUGUGUUUGGUUCAAU	0.911
CGUUUGGCGCUGUUGUAUGGUGUGAUUGUCAGUGUAUGGUGUCACUUCCUAUAGCCAGCCAGCAUACUUUGCCUUCCCCUAUAGCACUUAGCUGGGCAUUACUUUAUUAU	0.555
AGAACUGCUUUGAAAAUUUGGAAUAUCUGAUAACUCCAGUGGGCCAAGACAUGGUGGAUAAAAAUGUGGCAAAGACGACAAGAAACUUCAGGUGGUAGCCCUGGUUGUGC	1.06
UGUCUCUAUGAGACAGCUAGUCCAUUACUGUUACUAUUGUAUUACUGUCAUGUUCUUUACAUGUCACUUGUCAUUUUUAUUUGUGAAAAAUAAAAAGAUAAUUUAUUCAC	0.365
AGAGCAUCCUAAAGAAAGCACGCAUGAGGUCAUUCUGAUGCACGGCGAGAUGAGAUGUCAUUUCUGCUUUGGAGAAGGCAAGUUUAAUGAAGAGAAAGAAAAACAGGAGC	2.98
ACAACCAUGUCUCAGACUCAAGAGCUCCGUCAACAGAGCCUCGGAACUGGCCACUCAAUACAGUCUCUCCCUCAAUAGCACAGAAGGUCCUUGAGCUCCCAGGCCGCAGC	0.811
CUCUUCCACAGUUAACCAGGUCUCCACCAGGGCUUUCUUUCCAUGUGUUUUUCUUCUUGUUGUUUUAGAACUUUUUCAAAAACAAACAAGACAAACAAACAUAAAAAUAG	0.405
ACUGUCCAAAGAUUAGGGUUGGUGGUGGCAGUGCAGCAGGGGAGGGACAAACAACCAAGCUAUGGGUGACAGAGGCUCUCUCCUGGUGCCUGCACCUGCACUCUAGUGAC	0.271
CAGUGUACAGAAACCUCCUCUGUCGUGGCUAGCAUUGAAGCUGGGGUGGAGAACCCGAGGUUAGUUGGGGGCAGACCCGCACAGUGGUAAUGCCGUCCAGUCUCUCCCAG	0.342
AGCACACCUUCCCCGUCUGUCCCAGUAGGGGCUGGCGCUGGGGUUGGAGGCCGCUGGCCUGUGCUCUGGUGCAGAUGCUCUUACCCAGCUUCACUCAGGACCACCUUGGG	0.214
AACUAAUGCACACAGAAAUUUAAUAUACAGCAAUUCUUUGAAUGUUCCAGGUGUACGUAAACUAACUGAAAGUAUUAAGGACAUGCCUGUCUAUACAUGGGUUUCAUUGA	0.62

Sample 5
Target: Fragile X messenger ribonucleoprotein 1, C-terminal low-complexity region (Fmr1, Mus musculus, UniProt P35922)
Method: RNA Bind-n-Seq
Molecule type: RNA
Medium: in vitro
Tested at: 200 nM
Setting: whole 134-nt RNA, ends assumed
Together with: 150 mM LiCl
Reference: input library
Direction: higher = stronger binding
Each molecule: 7-deaza-guanosine replaces G
Shared flanks, not repeated: GGGAGUUCUACAGUCCGACGAUC … UGGAAUUCUCGGGUGUCAAGG
Sequence	log2 enrichment
CCUGUGCUACACAUCGUAUGUACCGAAUCGGGCCCCCCGGCCCCCCGGGGCCCCCCGGGGAAAGUAUUAUGUUACGCCGUUCGGAUCUGC	-1.06
ACCAUGCAGGUGGGCAUCGUUGGGAAGUGGGGCAAGGGGGGGAUAGGGAGGGGGGUAACACUUUGGGAACAGGUGGUCCCAGGUCGUUUC	1.43
CAAGUCCUGUGCUACACAUCGUAUGUACCGAAUCGGUUUUGGGUUUUGGGUUUUGGAAAGUAUUAUGUUACGCCGUUCGGAUCUGCACUU	-1.88
CAAGUCCUGUGCUACACAUCGUAUGUACCGAAUCGGGGCCCGGCCCGGGGCCCGGAAAGUAUUAUGUUACGCCGUUCGGAUCUGCACUUC	-1.26
UCCUGUGCUACACAUCGUAUGUACCGAAUCGGGAAAAAGGGGAAAAAGGGGAAAAAGGGGAAAGUAUUAUGUUACGCCGUUCGGAUCUGC	-0.407
CCUGUGCUACACAUCGUAUGUACCGAAUCAAAUUUUUAAACCCCCCCAAACCCCCCCAAAAAAGUAUUAUGUUACGCCGUUCGGAUCUGC	1.8
UCCUGUGCUACACAUCGUAUGUACCGAAUCGGGCCCCCCGGCCCCCCGGGCCCCCCGGGGAAAGUAUUAUGUUACGCCGUUCGGAUCUGC	0.291
GUCCUGUGCUACACAUCGUAUGUACCGAAUCGGGGUGGGGAAAGGGGAAAAAAAGGGGAAAGUAUUAUGUUACGCCGUUCGGAUCUGCAC	1.01
CACAGACAACACGCACCCACACAGACACAGAGGGAAGGGAUUGGGAUGGGGACAGGGUGCACAGCAGGGCGGGGUAGGACCCCAGCCCCU	-0.652
UCCUGUGCUACACAUCGUAUGUACCGAAUCAAAUUUAAAUUUUUUUAAAUUUUUUUAAAAAAGUAUUAUGUUACGCCGUUCGGAUCUGCA	-2.56
AAGUCCUGUGCUACACAUCGUAUGUACCGAAUCGGAAAGGAAAAAGGUUUUUUUGGAAAGUAUUAUGUUACGCCGUUCGGAUCUGCACUU	-2.3

Repeated from above (sample 2):
Variant	normalised enrichment score
K6I	0.528
D10F	0.369
L7T	0.282
L7I	0.436
